Assay results of several laboratories.
Lines come from different studies, so protocols differ. ± gives the spread as reported. Converted amounts (≈) assume the structure as drawn.

SMILES	assay	test system	setting	how to read	endpoint	result
CSCC[C@@H]1NC(=O)[C@H](CC(=O)O)NC(=O)CNC(=O)[C@H](CCCNC(=N)N)NC(=O)[C@H](C)NC(=O)[C@H](CCC(=O)O)NC(=O)[C@H](CCCNC(=N)N)NC(=O)[C@@H]2CSSC[C@@H]3NC(=O)[C@H](CO)NC(=O)[C@H]([C@@H](C)O)NC(=O)[C@@H]4CCCN4C(=O)[C@H](C)NC(=O)[C@H](Cc4c[nH]c5ccccc45)NC(=O)[C@H](CC(=O)O)NC(=O)CNC(=O)[C@H](CCCNC(=N)N)NC(=O)CNC(=O)[C@H](CCC(N)=O)NC(=O)[C@@H]4CCCN4C(=O)[C@@H](NC(=O)CNC(=O)C(C)F)CSSC[C@H](NC(=O)CNC(=O)[C@H](C)NC(=O)[C@H](CC(C)C)NC(=O)[C@H](CSSC[C@@H](C(=O)NCC(N)=O)NC(=O)[C@H]([C@@H](C)O)NC(=O)[C@H](CCCNC(=N)N)NC(=O)[C@@H]4CCCN4C1=O)NC(=O)[C@H](CC(=O)O)NC(=O)[C@H](CO)NC(=O)[C@H](CC(=O)O)NC(=O)[C@H](CCC(N)=O)NC(=O)[C@H](CO)NC3=O)C(=O)N[C@@H](C(C)C)C(=O)N2 (stereo partly drawn) [fluorine-18 labelled]		nude mice U-87 MG xenograft, pancreas	intravenous, 2.5 h		tissue uptake	0.21 ± 0.08 %ID/g
CN[C@@](C)(C[18F])C(=O)O		SCID mouse MDA-MB-468 xenograft, pancreas	120 min, post injection		tissue uptake	19 ± 2.5 %ID/g
C=C1C(=O)O[C@@H]2[C@H]1CC[C@H](C)[C@@]1(O)C=CC(=O)[C@@]21C	propidium iodide flow cytometry	primary splenocytes, BALB/c mouse	48 h, 10% fetal calf serum		CC50	1.2 ± 0.8 µg/mL (≈ 4.57 µM)
CC[C@H](C)[C@H](NC(=O)[C@H](CCCCN)NC(=O)[C@H](CCCCN)NC(=O)[C@H](CC(C)C)NC(=O)[C@@H](NC(=O)[C@H](CCCCN)NC(=O)[C@H](C)NC(=O)[C@H](C)NC(=O)[C@@H](NC(=O)CNC(=O)[C@H](C)NC(=O)[C@@H](NC(=O)[C@@H](NC(=O)[C@@H]1CCCN1C(=O)[C@H](Cc1ccccc1)NC(=O)[C@@H](N)Cc1ccccc1)[C@@H](C)CC)C(C)C)C(C)C)C(C)C)C(=O)N[C@@H](Cc1ccccc1)C(=O)N[C@H]1CSSC[C@@H](C(=O)O)NC(=O)[C@H](CCCCN)NC(=O)[C@H](CCCCN)NC(=O)[C@H](CO)NC(=O)[C@H]([C@@H](C)CC)NC(=O)[C@H]([C@@H](C)O)NC1=O	haemolysis	horse erythrocytes	2 h, 37 °C		HC10	8.28 µM
COc1c(OCCCN2CCOCC2)ccc2c1N=C(NC(=O)c1cnc(N)nc1)N1CCN=C21		human, plasma	intravenous, cycle 1 day 1, all cohorts		median Tmax	~1 h
Cc1c(P(=S)(c2ccccc2)c2ccccc2)n2ccccc2[n+]1C/C=C/c1ccccc1		mouse, plasma	intraperitoneal, 10 mg/kg, 12 h		plasma concentration	58 ng/mL
COC(=O)N[C@H](C(=O)N1CCC[C@H]1C(=O)Nc1ccc([C@@H]2CC[C@@H](c3ccc(NC(=O)[C@@H]4CCCN4C(=O)[C@@H](NC(=O)OC)C(C)C)cc3)N2c2ccc(C(C)(C)C)cc2)cc1)C(C)C		healthy human volunteers, plasma	oral, dose not given, alone, omeprazole interaction study		AUC(0-24)	1490 ng·h/mL
[123I]c1cncc(OC[C@@H]2CCN2)c1	SPECT	human, thalamus	intravenous bolus plus infusion, 7.7 mCi	relative to: plasma	tissue/plasma ratio	118
COc1ccc(-c2cc(=O)c3c(OC)c(OC)c(OC)cc3o2)cc1		C57BL/6 mouse, male, feces	oral, 1% w/w in diet, 6 weeks, orange peel extract diet	relative to: content in orange peel	tissue to peel content ratio	42.8%
CCCCCOc1ccc(-c2ccc(-c3ccc(C(=O)N[C@H]4C[C@@H](O)[C@@H](O)NC(=O)[C@@H]5[C@@H](O)[C@@H](C)CN5C(=O)[C@H]([C@@H](C)O)NC(=O)[C@H]([C@H](O)[C@@H](O)c5ccc(O)cc5)NC(=O)[C@@H]5C[C@@H](O)CN5C(=O)[C@H]([C@@H](C)O)NC4=O)cc3)cc2)cc1		human neonates, plasma	intravenous, 1.5 mg/kg/day after 3 mg/kg loading		steady-state volume of distribution	1.7 L/kg
Nc1ccncc1[18F]		isoflurane-anaesthetised mice, brain	intravenous, 35 min		SUV	1.14 ± 0.14
CC(C)C[C@H](NC(=O)[C@H](CCC(=O)O)NC(=O)[C@H](CCC(=O)O)NC(=O)[C@H](CC(=O)O)NC(=O)[C@H](CCC(=O)O)NC(=O)[C@H](CCC(=O)O)NC(=O)[C@H](CCC(=O)O)NC(=O)[C@@H](N)CC(=O)O)C(=O)O		rat, CSF	intranasal, 5.5 mg/kg, 150 min		concentration	0.704 ng/mL

Some of these lines once more:
SMILES	assay	test system	setting	how to read	endpoint	result
Cc1c(P(=S)(c2ccccc2)c2ccccc2)n2ccccc2[n+]1C/C=C/c1ccccc1		mouse, plasma	intraperitoneal, 10 mg/kg, 12 h		plasma concentration	58 ng/mL
